{"data": "Measurements of several laboratories", "note": "Parts stem from different laboratories: compare values within a part only. Changes are numbered by the printed parent chain."}
{"data": "Series 1", "target": "CREB5, bZIP domain (human)", "method": "DHFR protein complementation", "medium": "yeast", "notes": "single substitutions, most at no-binding floor", "relative to": "wild-type JUN-FOS pair", "reading": "higher = stronger binding", "parent": "JUN, bZIP domain (human); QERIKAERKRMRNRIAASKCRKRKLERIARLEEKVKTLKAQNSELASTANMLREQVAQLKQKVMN; partner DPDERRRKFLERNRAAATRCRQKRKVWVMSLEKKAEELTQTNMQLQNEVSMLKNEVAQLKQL"}
{"Substitution": "R53A", "binding fitness [natural log]": -0.936}
{"Substitution": "V35P", "binding fitness [natural log]": -1.4}
{"Substitution": "A57V", "binding fitness [natural log]": -0.251}
{"Substitution": "A49M", "binding fitness [natural log]": -0.806}
{"Substitution": "L59H", "binding fitness [natural log]": -1.26}
{"Substitution": "L45M", "binding fitness [natural log]": -0.845}
{"Substitution": "A57H", "binding fitness [natural log]": -0.368}
{"Substitution": "L52I", "binding fitness [natural log]": -1.12}
{"Substitution": "T48H", "binding fitness [natural log]": -0.412}
{"Substitution": "A57K", "binding fitness [natural log]": -0.21}
{"Substitution": "A29T", "binding fitness [natural log]": -0.333}
{"Substitution": "T37A", "binding fitness [natural log]": -0.2}
{"Substitution": "R30E", "binding fitness [natural log]": -0.0838}
{"Substitution": "M51R", "binding fitness [natural log]": -0.264}
{"Substitution": "Q41D", "binding fitness [natural log]": -0.649}
{"Substitution": "T37V", "binding fitness [natural log]": -0.297}
{"data": "Series 2", "target": "CCNB1, cyclin fold, Cln2 fusion (human)", "method": "yeast growth competition, sequencing", "medium": "yeast", "notes": "strong parent motif", "relative to": "not given", "reading": "higher = stronger binding", "parent": "MICAL3 docking peptide (human); LQLRRQLSFSEDS"}
{"Substitution": "R4H", "normalised enrichment score": 2.46}
{"Substitution": "Q2M", "normalised enrichment score": 4.29}
{"Substitution": "Q2P", "normalised enrichment score": 5.54}
{"Substitution": "L3K", "normalised enrichment score": 0.272}
{"Substitution": "E11T", "normalised enrichment score": 3.07}
{"Substitution": "F9W", "normalised enrichment score": 1.95}
{"Substitution": "S10L", "normalised enrichment score": 1.79}
{"Substitution": "R4K", "normalised enrichment score": 3.62}
{"Substitution": "R4L", "normalised enrichment score": 0.859}
{"Substitution": "Q2I", "normalised enrichment score": 3.98}
{"Substitution": "D12A", "normalised enrichment score": 4.64}
{"Substitution": "D12E", "normalised enrichment score": 5.26}
{"Substitution": "R5M", "normalised enrichment score": 0.631}
{"Substitution": "S10G", "normalised enrichment score": 4.7}
{"Substitution": "E11Y", "normalised enrichment score": 2.13}
{"Substitution": "D12L", "normalised enrichment score": 3.69}
{"Substitution": "Q6H", "normalised enrichment score": 2.67}
{"Substitution": "R4W", "normalised enrichment score": 1.88}
{"Substitution": "E11A", "normalised enrichment score": 3.15}
{"Substitution": "R5I", "normalised enrichment score": 0.404}
{"Substitution": "L3Y", "normalised enrichment score": 1.65}
{"Substitution": "Q2L", "normalised enrichment score": 4.36}
{"Substitution": "R5C", "normalised enrichment score": 0.752}
{"Substitution": "S10R", "normalised enrichment score": 2.98}
{"data": "Series 3", "target": "Interferon regulatory factor 7, full length, phosphomimetic (IRF7, Homo sapiens, UniProt Q92985, residues 1-503, S101K/S471D/S472D/S475D/S476D/S477D/S483D/S484D/S487D)", "method": "protein-binding microarray", "form": "double-stranded DNA, one strand shown", "medium": "in vitro", "concentration": "250 nM", "notes": "60-bp whole probe", "added": "salmon DNA 0.4 mg/ml", "relative to": "random background probes", "reading": "higher = stronger binding", "constant ends, left off below": "GCCTAGCAC … GTCTTGATTCGCTTGACGCTGCTG", "chain of UniProt Q92985 (whole entry, unmodified, looked up)": "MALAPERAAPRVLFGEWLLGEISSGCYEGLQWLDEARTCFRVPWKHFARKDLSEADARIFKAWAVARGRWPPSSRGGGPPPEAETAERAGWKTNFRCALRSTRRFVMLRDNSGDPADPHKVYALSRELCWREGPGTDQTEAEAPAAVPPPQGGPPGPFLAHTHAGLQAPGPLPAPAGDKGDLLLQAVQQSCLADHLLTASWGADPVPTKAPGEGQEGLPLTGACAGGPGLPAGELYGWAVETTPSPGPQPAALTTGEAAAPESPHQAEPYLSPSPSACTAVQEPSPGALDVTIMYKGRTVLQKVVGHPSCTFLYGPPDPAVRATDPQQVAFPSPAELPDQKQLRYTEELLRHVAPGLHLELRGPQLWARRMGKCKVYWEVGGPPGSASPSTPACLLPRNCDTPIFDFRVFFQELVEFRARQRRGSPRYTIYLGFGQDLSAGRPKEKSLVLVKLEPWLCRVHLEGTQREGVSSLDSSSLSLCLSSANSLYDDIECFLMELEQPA"}
{"Strand": "TCAAATATATATTCATAACTGTGCTAG", "log fluorescence [z-score]": 0.451}
{"Strand": "GACGGTATCGACTTTCGCGACGTGCTA", "log fluorescence [z-score]": 0.983}
{"Strand": "TTTTTTTCCTAATTGAACCCGTGCTAG", "log fluorescence [z-score]": 2.36}
{"Strand": "TTAGGTTTCCGGACTGGGTTAGTGCTA", "log fluorescence [z-score]": 0.717}
{"Strand": "TTAGGTATCGACTATCGGTTGGTGCTA", "log fluorescence [z-score]": 0.443}
{"Strand": "GACGGTATCGACTATCGGCACGTGCTA", "log fluorescence [z-score]": -0.232}
{"Strand": "TTTGGTCTCGGTCTCGGTTAGTGCTAG", "log fluorescence [z-score]": 2.58}
{"Strand": "TTAGGACTGGGGACTGGGTTCGTGCTA", "log fluorescence [z-score]": -0.269}
{"Strand": "TTACATATCGGGTTTCGATTAGTGCTA", "log fluorescence [z-score]": 6.65}
{"Strand": "TTAGGTCTCCTTTTGCTTTAGTGCTAG", "log fluorescence [z-score]": 1.99}
{"Strand": "TCATACCTCATCTTCCTCACTGTGCTA", "log fluorescence [z-score]": 1.09}
{"Strand": "GACGGTCGCCTTATCCTGACGTGCTAG", "log fluorescence [z-score]": -0.38}
{"Strand": "TCACTTTTCTTTTCTTTACTGTGCTAG", "log fluorescence [z-score]": 2.45}
{"Strand": "GTCCCCTGTCGGGAGGTCAGGTGCTAG", "log fluorescence [z-score]": 1.73}
{"Strand": "TTATGTATCGGTTTCGGTTAGTGCTAG", "log fluorescence [z-score]": 9.21}
{"Strand": "TTAGGACTGGGTATCGGGTAGTGCTAG", "log fluorescence [z-score]": 0.0652}
{"Strand": "GTGGTTTTCATTATTGCTTCGTGCTAG", "log fluorescence [z-score]": 1.04}
{"Strand": "GACGGTAACGGGTTTCGGGACGTGCTA", "log fluorescence [z-score]": 2.03}
{"data": "Series 4", "target": "Max dimerization protein 1, bHLH-zipper, MAX partner unstated (MXD1, Homo sapiens, UniProt Q05195, residues 56-136)", "method": "protein-binding microarray", "form": "double-stranded DNA, one strand shown", "medium": "in vitro", "concentration": "not given", "notes": "k-mer, scored over probes, only values ≥0.25", "reading": "higher = stronger binding", "Residues (chain)": "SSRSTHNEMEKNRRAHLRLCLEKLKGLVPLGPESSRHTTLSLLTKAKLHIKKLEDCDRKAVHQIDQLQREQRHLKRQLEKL"}
{"Strand": "CACGCGAC", "E-score": 0.403}
{"Strand": "GGGCGGGA", "E-score": 0.277}
{"Strand": "CACGTTCC", "E-score": 0.38}
{"Strand": "CGGGGGCA", "E-score": 0.266}
{"Strand": "ACTCATGG", "E-score": 0.306}
{"Strand": "AGGCGTGC", "E-score": 0.324}
{"Strand": "AGGGGCGG", "E-score": 0.327}
{"Strand": "CGTGTGGC", "E-score": 0.357}
{"Strand": "CCCCGTGA", "E-score": 0.349}
{"data": "Series 5", "target": "Histone acetyltransferase KAT6A, winged helix 1, GST fusion (KAT6A, Homo sapiens, UniProt Q92794, residues 1-85)", "method": "protein binding microarray", "form": "double-stranded DNA, one strand shown", "medium": "in vitro", "concentration": "not given", "notes": "8-mer, flanks averaged, mean of 2 arrays, mostly near background", "relative to": "not given", "reading": "higher = stronger binding", "Target sequence (chain)": "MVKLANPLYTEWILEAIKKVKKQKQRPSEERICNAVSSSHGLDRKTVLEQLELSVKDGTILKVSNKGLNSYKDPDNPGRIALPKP"}
{"Strand": "ATAAGGAA", "E-score": -0.175}
{"Strand": "CGATATTC", "E-score": 0.136}
{"Strand": "GACTACGA", "E-score": -0.18}
{"Strand": "CTAGCACC", "E-score": -0.114}
{"Strand": "CCAGGGCA", "E-score": -0.187}
{"Strand": "CATTGCTC", "E-score": -0.159}
{"Strand": "AGTTGTCG", "E-score": -0.104}
{"Strand": "ATCCTGGG", "E-score": -0.125}
{"Strand": "TGTAAACA", "E-score": -0.209}
{"Strand": "TATATTCA", "E-score": -0.0553}
{"Strand": "GAATTTAA", "E-score": -0.171}
{"Strand": "GCATCTCC", "E-score": 0.141}
{"Strand": "AGATACAA", "E-score": -0.13}
{"Strand": "CACAACGA", "E-score": 0.00156}
{"Strand": "TAATTCCA", "E-score": -0.206}
{"Strand": "CCGGCCCA", "E-score": 0.124}
{"Strand": "CCATGCAC", "E-score": -0.222}
{"Strand": "CAGTGCGC", "E-score": 0.334}
{"Strand": "AAAAAAGG", "E-score": -0.0894}
{"Strand": "ATGGGGTC", "E-score": -0.046}
{"Strand": "ATCCACGG", "E-score": 0.284}
{"Strand": "AGTTGCAT", "E-score": -0.15}
{"Strand": "AGTATCGA", "E-score": 0.0894}
{"Strand": "ACATCTTC", "E-score": -0.0684}
{"Strand": "CGGTGAAC", "E-score": 0.0948}
{"data": "Series 6", "target": "Centromere-binding protein 1, full length, N-terminal tag (CBF1, Saccharomyces cerevisiae, UniProt P17106, residues 1-351)", "method": "protein-binding microarray", "form": "double-stranded DNA, one strand shown", "medium": "in vitro", "concentration": "0.8 µM", "notes": "whole 60-bp probe, no competitor", "reading": "higher = stronger binding", "chain of UniProt P17106 (whole entry, looked up)": "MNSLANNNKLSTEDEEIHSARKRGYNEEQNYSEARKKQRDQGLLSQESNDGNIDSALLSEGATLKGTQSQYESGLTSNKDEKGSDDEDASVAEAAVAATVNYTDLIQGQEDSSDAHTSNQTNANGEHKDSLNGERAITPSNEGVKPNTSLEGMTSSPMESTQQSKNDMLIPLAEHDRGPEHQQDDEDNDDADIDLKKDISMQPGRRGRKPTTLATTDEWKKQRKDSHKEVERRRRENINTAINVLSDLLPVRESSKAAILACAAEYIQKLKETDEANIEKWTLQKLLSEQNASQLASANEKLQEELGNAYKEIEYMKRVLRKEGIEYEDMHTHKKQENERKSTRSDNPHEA"}
{"Strand": "CTACTCGAAGAAAAACACATGACCAGAATGATATTCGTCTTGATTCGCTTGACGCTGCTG", "fluorescence intensity [a.u.]": 2540}
{"Strand": "TGTACGAAGCTATGTAACGTGAGTATAGTAGTTAGGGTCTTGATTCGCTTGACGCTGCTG", "fluorescence intensity [a.u.]": 701}
{"Strand": "GAACTGTGTAGGAAAGAGGTGACGTCCTAGGCTTAGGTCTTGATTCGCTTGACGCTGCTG", "fluorescence intensity [a.u.]": 518}
{"Strand": "GAAGTAATTAATAGTGACATGAGTTGCTATGGTTAGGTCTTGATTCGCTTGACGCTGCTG", "fluorescence intensity [a.u.]": 522}
{"Strand": "CTACATGTTACTACTCACCTGCTCTCACCGACTTTCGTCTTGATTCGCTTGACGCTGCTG", "fluorescence intensity [a.u.]": 579}
{"Strand": "GAAATACTCCCCCCGCGCACGTCAATAGATCCTTAGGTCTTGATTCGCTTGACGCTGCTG", "fluorescence intensity [a.u.]": 523}
{"Strand": "CTAGCATTTGTATGTCACGAGTTTTCCTTGATTTTCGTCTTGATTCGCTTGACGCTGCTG", "fluorescence intensity [a.u.]": 2190}
{"Strand": "CTAATTCGTTTTAATCATGTGTCAGTATGAGATTTCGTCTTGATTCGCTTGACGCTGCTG", "fluorescence intensity [a.u.]": 1200}
{"Strand": "CTAGCTTTTCTGTTACATGTGTGATTCTCTTCATTCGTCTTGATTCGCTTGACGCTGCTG", "fluorescence intensity [a.u.]": 658}
{"Strand": "GAACAGAATAATGCACACGTATAAAGTACCAATTAGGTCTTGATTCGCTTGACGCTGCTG", "fluorescence intensity [a.u.]": 521}
{"Strand": "CTATCGCTATTTCGTGACAACGTTCCAGGACACTTCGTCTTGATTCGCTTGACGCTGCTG", "fluorescence intensity [a.u.]": 578}
{"Strand": "CTACTGCGGCTCCGCCTCGTGCTGCTCAAGGGCTTCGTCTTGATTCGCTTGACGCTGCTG", "fluorescence intensity [a.u.]": 597}
{"Strand": "GAAACTAATGCCTTTCACGATATGTGTGGCAGATAGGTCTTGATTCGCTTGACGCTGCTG", "fluorescence intensity [a.u.]": 550}
{"Strand": "GAAGAGAAAATTGACCACGTAGTAATAATAAGTTAGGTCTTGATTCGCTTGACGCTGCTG", "fluorescence intensity [a.u.]": 559}
{"Strand": "GAATCCCCCCTCGGGCACATGGAAATTCACTAATAGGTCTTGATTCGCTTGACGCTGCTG", "fluorescence intensity [a.u.]": 547}
